{"data": "Experimental data of several laboratories", "organism": "Enterococcus faecium", "note": "Numbers after ± are the reported error."}
{"Structure (SMILES)": "CC(C)C[C@H](NC(=O)[C@H](CC(N)=O)NC(=O)[C@H](CCCNC(=N)N)NC(=O)[C@@H](CC(C)C)NC(=O)[C@H](Cc1ccc(C(F)(F)F)cc1)NC(=O)[C@H](CC(=O)O)NC(=O)[C@H](CCCCN)NC(=O)[C@@H](CC(C)C)NC(=O)[C@H](CCCNC(=N)N)NC(=O)[C@H](CCC(N)=O)NC(=O)[C@@H](NC(=O)[C@@H](CC(C)C)NC(=O)[C@H](CCCNC(=N)N)NC(=O)[C@H](CCCCN)NC(=O)[C@H](Cc1ccc2ccccc2c1)NC(=O)CN)C(C)C)C(=O)N[C@H](C(N)=O)C(C)C", "test": "broth microdilution", "test system": "ATCC 51559", "MIC": "3.1 µM"}
{"Structure (SMILES)": "CC[P+](CC)(CC)[Au-][S][C@@H]1O[C@H](CO)[C@@H](O)[C@H](O)[C@H]1O", "test system": "ATCC 700221", "MIC": "0.1 µM"}
{"Structure (SMILES)": "Cc1csc(NCc2cc(N(C)C)c3c(c2O)C(=O)C2=C(O)[C@]4(O)C(=O)C(C(N)=O)=C(O)[C@@H](N(C)C)[C@@H]4C[C@@H]2C3)n1", "test system": "494, Tet M and Tet L", "MIC": "1 µg/mL"}
{"Structure (SMILES)": "CNC(CC(C)C)C(=O)NC1C(=O)NC(CC(N)=O)C(=O)NC2C(=O)NC3C(=O)NC(C(=O)NC(C(=O)NCCCNC(=N)N)c4cc(O)cc(O)c4-c4cc3ccc4O)C(O)c3ccc(c(Cl)c3)Oc3cc2cc(c3OC2OC(CO)C(O)C(O)C2OC2CC(C)(N)C(O)C(C)O2)Oc2ccc(cc2Cl)C1O (centres unmarked)", "test system": "ATCC BAA-2317 VanA", "setting": "−LTA", "MIC": "4 µg/mL"}
{"Structure (SMILES)": "CC1=C[C@@]2(C)C(=C(C)[C@H]3[C@@H]4C[C@H](C)C[C@H](C)[C@H]4[C@H]4Oc5ccc(cc5)C[C@]5(O)NC(=O)[C@]6(O[C@H]65)C(=O)[C@@H]2[C@@H]43)[C@H]1C", "test": "microbial growth, broth dilution", "test system": "ATCC35667", "MIC": "6.3 µM"}
{"Structure (SMILES)": "CN(C)c1cc(CN2CCCCCC2)c(O)c2c1C[C@H]1C[C@H]3[C@H](N(C)C)C(O)=C(C(N)=O)C(=O)[C@@]3(O)C(O)=C1C2=O", "test system": "494, Tet M and Tet L", "MIC": "1 µg/mL"}
{"Structure (SMILES)": "C[n+]1ccc(/C=C2\\Sc3ccccc3N2CCCN2CCCC2)c2ccccc21", "test": "microbial growth, broth dilution", "test system": "ATCC49624", "MIC": "16 µg/mL"}
{"Structure (SMILES)": "C=C(NC(=O)C(=C)NC(=O)c1csc(C2=NC3c4csc(n4)C4NC(=O)c5csc(n5)C(C(C)(O)C(C)O)NC(=O)C5CSC(=N5)C(=CC)NC(=O)C(C(C)O)NC(=O)c5csc(n5)C3(CC2)NC(=O)C(C)NC(=O)C(=C)NC(=O)C(CCSC)NC(=O)C(C(C)CC)NC2C=Cc3c(C(C)O)cc(nc3C2O)C(=O)OC4C)n1)C(N)=O (centres unmarked)", "test": "broth microdilution", "test system": "ATCC 12952 VRE", "setting": "18 h, 37 °C", "MIC": "0.007 µg/mL"}
{"Structure (SMILES)": "CNC(CC(C)C)C(=O)NC1C(=O)NC(CC(N)=O)C(=O)NC2C(=O)NC3C(=O)NC(C(=O)NC(C(=O)NCCCNC(=N)N)c4cc(O)cc(O)c4-c4cc3ccc4O)C(O)c3ccc(c(Cl)c3)Oc3cc2cc(c3OC2OC(CO)C(O)C(O)C2OC2CC(C)(NCc3ccc(-c4ccc(Cl)cc4)cc3)C(O)C(C)O2)Oc2ccc(cc2Cl)C1O (centres unmarked)", "test system": "ATCC BAA-2317 VanA", "setting": "with: +POPE 100 µg/mL", "MIC": "0.3 µg/mL"}
{"Structure (SMILES)": "CN(C)c1cc(CNc2ccccc2)c(O)c2c1C[C@H]1C[C@H]3[C@H](N(C)C)C(O)=C(C(N)=O)C(=O)[C@@]3(O)C(O)=C1C2=O", "test system": "494, Tet M and Tet L", "MIC": "1 µg/mL"}
{"Structure (SMILES)": "CCn1[c]([Au-][Cl])[n+](CC)c2ccc(C(=O)OC)cc21", "test": "broth dilution", "test system": "DSM 20477", "setting": "20 h, 37 °C", "MIC": "11.5 ± 5 µM"}
{"note": "Repeated from above:"}
{"Structure (SMILES)": "CN(C)c1cc(CN2CCCCCC2)c(O)c2c1C[C@H]1C[C@H]3[C@H](N(C)C)C(O)=C(C(N)=O)C(=O)[C@@]3(O)C(O)=C1C2=O", "test system": "494, Tet M and Tet L", "MIC": "1 µg/mL"}
{"Structure (SMILES)": "C[n+]1ccc(/C=C2\\Sc3ccccc3N2CCCN2CCCC2)c2ccccc21", "test": "microbial growth, broth dilution", "test system": "ATCC49624", "MIC": "16 µg/mL"}
